Measurements from different studies.
Compare with care: the assays were run in different laboratories. “And” joins repeats or separate records; there may be more than shown. ± gives the spread as reported. Converted amounts (≈) assume the structure as drawn.

c1ccc(-c2nc(N3CCC(c4ccccn4)C3)c3ccccc3n2)nc1 (stereo not drawn)  maximum tolerated dose (Balb/c mouse, female; oral, up to 5 days, twice daily): ≤ 100 mg/kg/dose
CC(=O)CO  specification limit (glycerol; dermal, toxicity-qualified): 180 µg/mL
CCCCCOc1ccc(-c2cc(-c3ccc(C(=O)N[C@H]4C[C@@H](O)[C@@H](O)NC(=O)[C@@H]5[C@@H](O)[C@@H](C)CN5C(=O)[C@H]([C@H](O)CC(N)=O)NC(=O)[C@H]([C@H](O)[C@@H](O)c5ccc(O)c(OS(=O)(=O)O)c5)NC(=O)[C@@H]5C[C@@H](O)CN5C(=O)[C@H]([C@@H](C)O)NC4=O)cc3)no2)cc1  central volume (population PK model; human infants, plasma; dose not given): 0.61 L/1.8 kg
NC(=O)c1nc(F)c[nH]c1=O  solubility (UV-Vis spectrophotometry; supercritical CO2; 120 min, 338 K, 30 MPa, 809.58 kg/m^3): 2.62 mg/mL (≈ 16.7 mM)
CC(=O)O[C@H]1C(=O)[C@@]2(C)[C@H]([C@H](OC(=O)c3ccccc3)[C@]3(O)C[C@H](OC(=O)[C@H](O)[C@@H](NC(=O)c4ccccc4)c4ccccc4)C(C)=C1C3(C)C)[C@]1(OC(C)=O)CO[C@@H]1C[C@@H]2O  urea (BALB/c mouse, serum; intraperitoneal, 10 mg/kg every three days, 60 days): 126 µmol/L and 93.5 µmol/L and 112 µmol/L
CO[C@H]1C[C@@H]2CC[C@@H](C)[C@@](O)(O2)C(=O)C(=O)N2CCCC[C@H]2C(=O)O[C@H]([C@H](C)C[C@@H]2CC[C@@H](OCCO)[C@H](OC)C2)CC(=O)[C@H](C)/C=C(\C)[C@@H](O)[C@@H](OC)C(=O)[C@H](C)C[C@H](C)/C=C/C=C/C=C/1C  CL/F (human cancer patients, whole blood; oral, 5 mg once daily, added: paclitaxel): 13.3 L/h
CC(C)C[C@H](NC(=O)[C@H](CC(=O)O)NC(=O)CNC(=O)[C@H](CCCNC(=N)N)NC(=O)[C@H](CC(C)C)NC(=O)[C@H](CC(N)=O)NC(=O)[C@@H]1CCCN1C(=O)[C@@H](NC(=O)[C@H](C)NC(=O)[C@H](CC(N)=O)NC(=O)CCOCCOCCOCCOCCOCCOCCOCCOCCOCCOCCOCCOCCOCCOCCOCCOCCOCCOCCOCCOCCOCCOCCOCCOCCOCCOCCOCCOCCNC(=O)CN1CCN(CC(=O)O)CCN(CC(=O)O)CC1)C(C)C)C(=O)N[C@@H](CCC(N)=O)C(=O)N[C@H](C(=O)N[C@@H](CC(C)C)C(=O)N[C@@H](C)C(=O)N[C@@H](CCC(N)=O)C(=O)N[C@@H](CCCNC(=N)N)C(=O)N[C@H](C(=O)N[C@@H](C)C(=O)N[C@@H](CCCNC(=N)N)C(=O)N[C@H](C(=O)NCCOCCOCCOCCOCCOCCOCCOCCOCCOCCOCCOCCOCCOCCOCCOCCOCCOCCOCCOCCOCCOCCOCCOCCOCCOCCOCCOCCOCCC(N)=O)[C@@H](C)O)C(C)C)C(C)C [fluorine-18 labelled]  tissue uptake (biodistribution, radioactivity; female athymic nude mice, DX3puroβ6/DX3puro xenografts, kidney; intravenous, 0.175 nmol, 4 h): 41 ± 10 %ID/g
COc1ccc([C@@H]2CC(=O)c3c(O)cc(O[C@@H]4O[C@H](CO[C@@H]5O[C@@H](C)[C@H](O)[C@@H](O)[C@H]5O)[C@@H](O)[C@H](O)[C@H]4O)cc3O2)cc1O  permeability ratio (New Zealand albino rabbit, sclera; reference: sclera over sclera-RPE and cornea): ~10 fold
[123I]c1cncc(OC[C@@H]2CCN2)c1  tissue/plasma ratio (SPECT; human, occipital lobe; intravenous bolus plus infusion, 7.6 mCi; reference: tissue over plasma): 19.5
CC(=O)C[C@@H](c1ccccc1)c1c(O)c2ccc(O)cc2oc1=O  Km (substrate, item: 7-hydroxywarfarin 4'-glucuronide; pooled human liver microsomes): 111 µM
O=c1[nH]c(Cc2ccccn2)nc2c1cnn2C1CCOCC1  AUC(0-inf) (male human, plasma; oral, 50 mg, single dose): 648 nM·h
CN[C@@](C)(C[18F])C(=O)O  tissue uptake (SCID mouse MDA-MB-468 xenograft, brain; 15 min, post injection): 0.4 ± 0.03 %ID/g

Repeated from above:
CO[C@H]1C[C@@H]2CC[C@@H](C)[C@@](O)(O2)C(=O)C(=O)N2CCCC[C@H]2C(=O)O[C@H]([C@H](C)C[C@@H]2CC[C@@H](OCCO)[C@H](OC)C2)CC(=O)[C@H](C)/C=C(\C)[C@@H](O)[C@@H](OC)C(=O)[C@H](C)C[C@H](C)/C=C/C=C/C=C/1C  CL/F (human cancer patients, whole blood; oral, 5 mg once daily, added: paclitaxel): 13.3 L/h
